Results from different studies.
Each numbered part is a random draw from the data of one study; scales do not carry over between parts.

Study 1
Target: Ras GTPase-activating protein-binding protein 1, C-terminal RGG region (G3BP1, Homo sapiens, UniProt Q13283)
Sequence of UniProt Q13283 (whole entry, looked up): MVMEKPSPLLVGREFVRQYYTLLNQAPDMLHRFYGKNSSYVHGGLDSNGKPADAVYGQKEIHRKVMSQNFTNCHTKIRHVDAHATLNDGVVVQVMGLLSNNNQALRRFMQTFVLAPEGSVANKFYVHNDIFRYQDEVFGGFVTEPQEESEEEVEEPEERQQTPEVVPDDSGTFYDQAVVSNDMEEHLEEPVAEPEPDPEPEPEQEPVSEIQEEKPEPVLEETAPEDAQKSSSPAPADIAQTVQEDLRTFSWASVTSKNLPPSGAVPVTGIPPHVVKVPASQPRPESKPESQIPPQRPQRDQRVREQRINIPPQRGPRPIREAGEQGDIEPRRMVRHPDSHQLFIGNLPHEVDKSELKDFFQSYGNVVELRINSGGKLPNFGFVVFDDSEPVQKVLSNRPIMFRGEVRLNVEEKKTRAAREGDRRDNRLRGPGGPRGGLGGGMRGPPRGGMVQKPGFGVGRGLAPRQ
Method: RNA Bind-n-Seq
Molecule type: RNA
Sample: in vitro
Tested at: 1 µM
Setting: whole 134-nt RNA, ends assumed
With: 150 mM KCl
Reference: input library
Reading: higher = stronger binding
Constant ends, left off below: GGGAGUUCUACAGUCCGACGAUC … UGGAAUUCUCGGGUGUCAAGG
Oligonucleotide | log2 enrichment
CCUCAAGUCCUGUGCUACACAUCGUAUGUACCGAAUCGGUUUGGAGGUUUGGAAAGUAUUAUGUUACGCCGUUCGGAUCUGCACUUCCAG | -0.747
UCCUCAAGUCCUGUGCUACACAUCGUAUGUACCGAAUCGGUGGUUUGGUGGAAAGUAUUAUGUUACGCCGUUCGGAUCUGCACUUCCAGC | -0.852
CACAGACAACACGCACCCACACAGACACAGAGGGAAGGGGUUGGGAUGGGGACAGGGUGCACAGCAGGGCGGGGUAGGACCGCAGCCCCU | -1.08
UGGCCCUGGUGGCAUGCGGGGAGGAAGAGGUGGCCUCAUGGAUCGUGGUGGUCCCGGUGGAAUGUUCAGAGGUGCCCGUGGUGGAGACAG | 3.33
CUGUGCUACACAUCGUAUGUACCGAAUCGGGGAAAGGGGUUUUUUUGGGGUUUUUUUGGGGAAAGUAUUAUGUUACGCCGUUCGGAUCUG | -0.289
ACCAUGCAGGUGGGCAUCUUUGGGAAGUGGGGCAAGGGAAAGAUAGGGAGGGGGGUAACACUUUGGGAACAGGUGGUCCCAGGUCGUUUC | -1.2
GCAGGAAGUAAAAACAAAUGGAAAUGCUUCGGAUAGUGGCAGCGGUGGGGGUUGCUAAGGAAAGGGUGGGAUGGGAGUGGGUAAAGAGUU | 0.982
UCAAGUCCUGUGCUACACAUCGUAUGUACCGAAUCGGUUUUUGGUUUUUGGAGGAAAGUAUUAUGUUACGCCGUUCGGAUCUGCACUUCC | -1.05
GUCCUGUGCUACACAUCGUAUGUACCGAAUCGGUUUUUGGAAAAAAAGGAAAAAAAGGAAAGUAUUAUGUUACGCCGUUCGGAUCUGCAC | -1.73

Study 2
Target: Sal-like protein 4, full length isoform B (SALL4, Homo sapiens, UniProt Q9UJQ4-2, residues 1-616)
Method: universal PBM
Molecule type: double-stranded DNA, one strand shown
Sample: in vitro
Tested at: not given
Setting: 8-mer, flanks averaged, mean of replicates
Reading: higher = stronger binding
Target sequence (chain): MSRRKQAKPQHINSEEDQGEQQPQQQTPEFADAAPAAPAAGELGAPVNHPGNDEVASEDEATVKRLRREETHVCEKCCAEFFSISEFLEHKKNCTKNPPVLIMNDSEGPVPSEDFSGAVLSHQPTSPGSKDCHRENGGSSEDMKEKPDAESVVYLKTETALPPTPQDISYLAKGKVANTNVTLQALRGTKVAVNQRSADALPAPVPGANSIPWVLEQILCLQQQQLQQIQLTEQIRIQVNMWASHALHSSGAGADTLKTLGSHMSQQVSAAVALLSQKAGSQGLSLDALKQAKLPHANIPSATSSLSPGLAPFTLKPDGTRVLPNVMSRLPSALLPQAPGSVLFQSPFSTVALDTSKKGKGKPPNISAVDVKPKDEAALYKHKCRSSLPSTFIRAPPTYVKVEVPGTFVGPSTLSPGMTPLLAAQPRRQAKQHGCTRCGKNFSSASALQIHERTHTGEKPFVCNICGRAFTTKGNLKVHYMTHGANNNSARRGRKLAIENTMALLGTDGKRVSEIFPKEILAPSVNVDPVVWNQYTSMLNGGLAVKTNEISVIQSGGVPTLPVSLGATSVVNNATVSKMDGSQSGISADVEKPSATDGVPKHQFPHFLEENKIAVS
Oligonucleotide | E-score
ACAATCCT | 0.0938
CACGAGTC | -0.128
ATGAAGCG | -0.0644
AGGAAGAA | 0.0544
CAATGACC | -0.099
GTTACAGA | 0.0328
AATCTAAT | 0.198
AATGATCG | -0.0503
CTATCTTA | 0.136
GTAGCTAA | -0.0589
AAGTCGCA | 0.0501
AGCGGTAT | 0.0389
AAAGTTTA | 0.269
ACCTTTCC | 0.157
ATAGGTCG | -0.012
ATTAATTC | 0.316
CCTTTTGA | 0.131
ATCAGAAG | 0.153
ATCGTGCG | 0.148
CCATAGAA | 0.0707

Study 3
Target: Interferon regulatory factor 7, full length, phosphomimetic (IRF7, Homo sapiens, UniProt Q92985, residues 1-503, S471D/S472D/S475D/S476D/S477D/S483D/S484D/S487D)
Method: protein-binding microarray
Molecule type: double-stranded DNA, one strand shown
Sample: in vitro
Tested at: 2200 nM top
Setting: 60-bp whole probe
With: salmon DNA 0.4 mg/ml
Reference: random background probes
Reading: higher = stronger binding
Constant ends, left off below: GCCTAGCAC … GTCTTGATTCGCTTGACGCTGCTG
Target sequence (chain): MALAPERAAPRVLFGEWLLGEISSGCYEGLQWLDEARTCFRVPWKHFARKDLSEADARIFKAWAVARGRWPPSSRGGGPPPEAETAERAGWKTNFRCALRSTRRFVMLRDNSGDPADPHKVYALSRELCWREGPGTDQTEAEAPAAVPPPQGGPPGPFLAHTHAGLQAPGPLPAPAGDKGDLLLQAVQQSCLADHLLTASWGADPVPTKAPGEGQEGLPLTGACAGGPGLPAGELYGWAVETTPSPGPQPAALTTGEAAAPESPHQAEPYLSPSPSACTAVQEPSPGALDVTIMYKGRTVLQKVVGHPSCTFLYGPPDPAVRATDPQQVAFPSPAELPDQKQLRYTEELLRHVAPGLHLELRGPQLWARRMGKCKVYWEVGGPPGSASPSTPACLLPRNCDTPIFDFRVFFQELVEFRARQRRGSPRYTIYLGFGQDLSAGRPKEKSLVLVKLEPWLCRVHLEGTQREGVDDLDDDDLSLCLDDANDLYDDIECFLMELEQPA
Oligonucleotide | fitted relative affinity [z-score]
TTAGGTTTCGGGATTGGGTTAGTGCTA | 4.87
GACGATATCAGACTGGAGAGGTGCTAG | -0.146
TTAGGTTCCCTGTTCCTTTAGTGCTAG | 1.86
TTAGGACTGGGGTATGGGTTAGTGCTA | -0.638
TATTTTTTTTATTTATAAATGTGCTAG | 1.05
TTAGATTCCAGTTTTGATTAGTGCTAG | 1.64
GACGATTTCGGGAGTGGAGACGTGCTA | 0.612
TTAGGTCTGGGTTTCGGTTAGTGCTAG | 4.14
GACGGTTTCGGCACTGGGGACGTGCTA | 1.91
TTAGGTATCGGGTTTCGATTAGTGCTA | 2.95
GACGAACTGAGACTGGAGAAGTGCTAG | -0.229
TTAGAACTGTGGACTGGATTAGTGCTA | -0.554
GACGGTTTCCTTCTACTGACGTGCTAG | 3.06
TTACATTTATATCTTTGCTTGTGCTAG | 1.06
GACGGCATCCTACTGCTGACGTGCTAG | 0.0584
AAGGGTCTCTTGTTCTCTCTGTGCTAG | 0.602
GACGACCTCAGTCTCGAGACGTGCTAG | 0.211
TTAGGACTGCGGTTTCGGTTAGTGCTA | 4.5
GACGGTCCCGGTCTCGGGACGTGCTAG | -0.76

Study 4
Target: Histone acetyltransferase KAT6A, winged helix 1, GST fusion (KAT6A, Homo sapiens, UniProt Q92794, residues 1-85)
Method: protein binding microarray
Molecule type: double-stranded DNA, one strand shown
Sample: in vitro
Tested at: not given
Setting: 8-mer, flanks averaged, mean of 2 arrays, mostly near background
Reference: not given
Reading: higher = stronger binding
Target sequence (chain): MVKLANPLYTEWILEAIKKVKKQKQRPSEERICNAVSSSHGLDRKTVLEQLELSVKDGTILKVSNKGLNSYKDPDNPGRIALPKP
Oligonucleotide | E-score
ATCGGTCA | 0.0997
CACAGAAG | -0.216
CGGCCGGC | 0.457
AATATCCA | -0.0892
AAAGAACT | -0.154
ACCGGACG | 0.271
AAATACTT | -0.103
TCGCCTCA | -0.0535
CAGACATG | -0.0362
CCGGTGTA | 0.32
ACGCTTAT | 0.00719
ATATCAAC | -0.166
ACAGTAAT | -0.0642
AATGCTGA | -0.256
ATGGCCTG | -0.159
CCGAGTCA | -0.0536
CAAGCTCC | -0.0866
AAGAGCCA | -0.117
CGCACACC | 0.251
AGTTCGAC | -0.105

Study 5
Target: Prothrombin, mature alpha-thrombin (F2, Homo sapiens, UniProt P00734)
Method: aptamer microarray, sandwich
Molecule type: DNA with 2'F-ANA
Sample: in vitro
Tested at: 200 nM
Setting: whole 15-mer aptamer, many near background
With: Cy3 exosite-II aptamer, 400 nM
Reading: higher = stronger binding
Oligonucleotide: GGTTGGTGTGGTTGG
Modification | mean fluorescence intensity [a.u.]
2'F-ANA at 3 5 8 9 11 14 15 | 59
2'F-ANA at 1 2 5 6 8 9 12 15 | 110
2'F-ANA at 1 3 4 5 7 9 10 13 14 | 42.7
2'F-ANA at 1 2 4 5 11 12 15 | 79.8
2'F-ANA at 1 2 3 4 6 9 10 11 13 15 | 58
2'F-ANA at 6 11 12 | 673
2'F-ANA at 1 4 9 14 | 65.2
2'F-ANA at 1 2 3 4 6 7 8 9 12 15 | 344
2'F-ANA at 3 4 6 7 9 14 | 244
2'F-ANA at 2 3 5 7 10 13 14 | 48.5
2'F-ANA at 1 5 6 10 13 15 | 44.7
2'F-ANA at 1 5 6 7 8 9 13 | 70.6
2'F-ANA at 5 6 8 14 | 44.4
2'F-ANA at 1 2 3 4 5 7 8 10 11 12 13 14 | 49.7
2'F-ANA at 1 5 6 7 8 9 10 11 | 49.6
2'F-ANA at 1 2 4 5 6 8 10 11 13 | 48.3
